Results of several laboratories.
Each numbered part is a random draw from the data of one study; scales do not carry over between parts.
Sequence of UniProt P32298 (whole entry, looked up): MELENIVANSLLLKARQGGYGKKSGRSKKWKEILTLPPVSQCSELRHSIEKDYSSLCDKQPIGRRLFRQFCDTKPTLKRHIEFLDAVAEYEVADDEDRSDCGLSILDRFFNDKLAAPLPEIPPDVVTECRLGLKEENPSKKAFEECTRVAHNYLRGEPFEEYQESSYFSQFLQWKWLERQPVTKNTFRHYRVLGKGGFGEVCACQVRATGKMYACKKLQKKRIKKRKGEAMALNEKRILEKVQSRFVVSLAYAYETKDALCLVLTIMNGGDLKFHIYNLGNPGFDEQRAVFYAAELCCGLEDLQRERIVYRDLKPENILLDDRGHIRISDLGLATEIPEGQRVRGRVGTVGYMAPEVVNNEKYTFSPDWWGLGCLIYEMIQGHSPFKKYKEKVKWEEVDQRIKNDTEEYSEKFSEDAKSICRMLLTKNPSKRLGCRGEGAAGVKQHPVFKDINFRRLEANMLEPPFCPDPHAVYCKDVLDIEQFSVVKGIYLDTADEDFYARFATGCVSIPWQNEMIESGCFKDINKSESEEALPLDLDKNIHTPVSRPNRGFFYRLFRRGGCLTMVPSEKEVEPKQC
Sequence of UniProt P50750 (whole entry, looked up): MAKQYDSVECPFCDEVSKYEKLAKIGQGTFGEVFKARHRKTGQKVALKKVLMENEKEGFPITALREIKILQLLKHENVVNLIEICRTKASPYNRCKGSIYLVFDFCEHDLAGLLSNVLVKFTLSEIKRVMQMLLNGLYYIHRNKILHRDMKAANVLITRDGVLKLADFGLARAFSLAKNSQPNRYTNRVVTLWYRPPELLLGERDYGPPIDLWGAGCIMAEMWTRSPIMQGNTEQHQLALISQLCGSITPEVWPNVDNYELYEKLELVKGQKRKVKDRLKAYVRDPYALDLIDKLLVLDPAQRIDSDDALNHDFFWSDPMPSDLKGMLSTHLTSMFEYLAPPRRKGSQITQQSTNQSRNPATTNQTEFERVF
Sequence of UniProt Q16566 (whole entry, looked up): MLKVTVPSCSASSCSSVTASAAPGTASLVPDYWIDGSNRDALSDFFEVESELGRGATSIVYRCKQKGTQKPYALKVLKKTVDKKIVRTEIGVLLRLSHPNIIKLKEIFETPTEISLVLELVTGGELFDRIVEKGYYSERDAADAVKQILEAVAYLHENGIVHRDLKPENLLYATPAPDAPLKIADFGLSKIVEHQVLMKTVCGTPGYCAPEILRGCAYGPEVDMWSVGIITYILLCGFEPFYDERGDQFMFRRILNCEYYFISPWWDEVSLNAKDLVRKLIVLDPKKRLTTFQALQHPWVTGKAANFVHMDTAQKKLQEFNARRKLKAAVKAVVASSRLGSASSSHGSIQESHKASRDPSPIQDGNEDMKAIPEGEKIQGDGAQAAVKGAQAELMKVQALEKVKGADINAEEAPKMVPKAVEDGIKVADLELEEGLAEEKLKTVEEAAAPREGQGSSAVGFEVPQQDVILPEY
Sequence of UniProt P31751 (whole entry, looked up): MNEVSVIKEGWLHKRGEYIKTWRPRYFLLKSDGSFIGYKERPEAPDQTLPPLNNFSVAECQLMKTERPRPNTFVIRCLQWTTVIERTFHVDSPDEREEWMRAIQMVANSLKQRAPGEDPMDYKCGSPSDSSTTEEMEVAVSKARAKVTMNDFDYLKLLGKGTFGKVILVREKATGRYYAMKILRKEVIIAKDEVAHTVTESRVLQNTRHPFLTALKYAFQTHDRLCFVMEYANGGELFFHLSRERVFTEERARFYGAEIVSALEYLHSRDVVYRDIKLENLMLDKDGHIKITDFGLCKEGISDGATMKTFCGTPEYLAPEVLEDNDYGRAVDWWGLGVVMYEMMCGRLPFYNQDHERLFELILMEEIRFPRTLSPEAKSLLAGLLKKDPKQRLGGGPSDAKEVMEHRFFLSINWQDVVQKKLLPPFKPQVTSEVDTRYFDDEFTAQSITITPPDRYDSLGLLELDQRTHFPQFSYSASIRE

Block 1
SMILES: CNC(=O)c1ccc(-c2cnn3ccc(C(=O)N(C)c4ccc(Cl)c(C(=O)OC)c4)cc23)cc1
Organism: Cryptosporidium parvum
Technique: faecal qPCR
Species: IFN-γ knockout mouse
Time: day 0 post treatment
dose | oocyst shedding [log oocysts/g faeces]
3 mg/kg | 4.38
10 mg/kg | 4.03
1 mg/kg | 4.16

Block 2
Compound: CCn1cnc2c(Nc3cccc(Cl)c3)nc(N[C@H]3CCCC[C@H]3N)nc21
Read-out: enzyme activity
Action: inhibitor
Concentration: 0.5 µM
Relative to: control
target | remaining activity
GRK4 (Homo sapiens, UniProt P32298) | 96.2%
DCLK2 (Homo sapiens, UniProt Q8N568) | 93.1%
AKT2 (Homo sapiens, UniProt P31751) | 108%
DDR2 (Homo sapiens, UniProt Q16832) | 97.2%
PRKG2 (Homo sapiens, UniProt Q13237) | 74.3%
NEK3 (Homo sapiens, UniProt P51956) | 100%
MET (Homo sapiens, UniProt P08581) | 102%
RPS6KA4 (Homo sapiens, UniProt O75676) | 88.2%
MINK1 (Homo sapiens, UniProt Q8N4C8) | 95.2%
Cyclin-dependent kinase 1, with cyclin A (CDK1, Homo sapiens, UniProt P06493) | 60.7%
ROCK1 (Homo sapiens, UniProt Q13464) | 96.5%
CAMK4 (Homo sapiens, UniProt Q16566) | 103%
Cyclin-dependent kinase 9, with cyclin K (CDK9, Homo sapiens, UniProt P50750) | 46.9%

Block 3
Target: Eukaryotic initiation factor 4A-I (EIF4A1, Homo sapiens, UniProt P60842)
Sequence of UniProt P60842 (whole entry, looked up): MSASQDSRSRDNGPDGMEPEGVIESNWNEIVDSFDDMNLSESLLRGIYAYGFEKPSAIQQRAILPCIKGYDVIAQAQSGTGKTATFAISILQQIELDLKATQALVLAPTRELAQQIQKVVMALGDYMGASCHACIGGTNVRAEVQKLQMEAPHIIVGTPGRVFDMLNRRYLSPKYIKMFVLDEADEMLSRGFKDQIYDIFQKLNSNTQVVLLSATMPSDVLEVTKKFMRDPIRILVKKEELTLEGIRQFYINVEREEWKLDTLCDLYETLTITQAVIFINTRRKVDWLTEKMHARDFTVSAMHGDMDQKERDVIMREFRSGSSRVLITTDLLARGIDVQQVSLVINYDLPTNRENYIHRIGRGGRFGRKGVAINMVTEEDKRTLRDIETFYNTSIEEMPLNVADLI
Read-out: RNA clamping
Technique: fluorescence polarization
Concentration: concentration not given
With: FAM-labelled poly r(AG)8 RNA
Direction: higher = more clamping
Structure (SMILES) | fluorescence polarization change [mP]
[2H]C([2H])([2H])C1=N[C@@]2(O)[C@H](C(=O)OC)[C@@H](c3ccccc3)[C@]3(c4ccc(OC)cc4)Oc4cc(OC)cc(OC)c4[C@]23N1 | 68
COC(=O)[C@@H]1[C@@H](O)[C@@]2(O)c3c(OC)cc(OC)cc3O[C@@]2(c2ccc(Br)cc2)[C@H]1c1ccccc1 | 23.1
COc1ccc([C@@]23Oc4cc(OC)cc(OC)c4[C@]2(O)c2nc(C(C)C)[nH]c(=O)c2[C@H]3c2ccccc2)cc1 | 41.1
COC(=O)[C@@H]1[C@@H](c2ccccc2)[C@]2(c3ccc(OC)cc3)Oc3cc(OC)cc(OC)c3[C@@]23OC(c2ccc(Cl)nc2)=N[C@@]13O | 6.1
COc1ccc([C@@]23Oc4cc(OC)cc(OC)c4[C@]2(O)[C@H](O)C[C@H]3c2ccccc2)cc1 | 66
COc1ccc([C@@]23Oc4cc(OC)cc(OC)c4[C@]2(O)c2nc(-c4ccc(Cl)cc4)[nH]c(=O)c2[C@H]3c2ccccc2)cc1 | 4
COc1ccc([C@@]23Oc4cc(OC)cc(OC)c4[C@]2(O)c2nc(-c4ccncc4)[nH]c(=O)c2[C@H]3c2ccccc2)cc1 | 16.4
COc1ccc([C@@]23Oc4cc(OC)cc(OC)c4[C@]2(O)c2nc(-c4cccnc4)[nH]c(=O)c2[C@H]3c2ccccc2)cc1 | 42.4
COc1ccc([C@@]23Oc4cc(OC)cc(OC)c4[C@]2(O)c2nc(-c4cnccn4)[nH]c(=O)c2[C@H]3c2ccccc2)cc1 | 36.9
COc1ccc([C@@]23Oc4cc(OC)cc(OC)c4[C@]2(O)c2nc(-c4ccc(Br)cc4)[nH]c(=O)c2[C@H]3c2ccccc2)cc1 | -2
COCc1nc2c(c(=O)[nH]1)[C@@H](c1ccccc1)[C@]1(c3ccc(OC)cc3)Oc3cc(OC)cc(OC)c3[C@]21O | 69.6
COc1ccc([C@]23Oc4cc(OC)cc(OC)c4[C@](O)([C@H](c4ccccc4)[C@H]2C(=O)NCCCCNC(=O)c2ccccc2)[C@H]3O)cc1 | 3.1
COc1ccc([C@@]23Oc4cc(OC)cc(OC)c4[C@@]24NC(C)=N[C@@]4(O)[C@H](C(=O)N(C)OC)[C@H]3c2ccccc2)cc1 | 114
COc1ccc([C@@]23Oc4cc(OC)cc(OC)c4[C@]2(O)c2nc(-c4ccc(Cl)nc4)[nH]c(=O)c2[C@H]3c2ccccc2)cc1 | 17.5

Block 4
Target: DNA polymerase theta, ATPase domain (POLQ, Homo sapiens, UniProt O75417)
Sequence of UniProt O75417 (whole entry, unmodified, looked up): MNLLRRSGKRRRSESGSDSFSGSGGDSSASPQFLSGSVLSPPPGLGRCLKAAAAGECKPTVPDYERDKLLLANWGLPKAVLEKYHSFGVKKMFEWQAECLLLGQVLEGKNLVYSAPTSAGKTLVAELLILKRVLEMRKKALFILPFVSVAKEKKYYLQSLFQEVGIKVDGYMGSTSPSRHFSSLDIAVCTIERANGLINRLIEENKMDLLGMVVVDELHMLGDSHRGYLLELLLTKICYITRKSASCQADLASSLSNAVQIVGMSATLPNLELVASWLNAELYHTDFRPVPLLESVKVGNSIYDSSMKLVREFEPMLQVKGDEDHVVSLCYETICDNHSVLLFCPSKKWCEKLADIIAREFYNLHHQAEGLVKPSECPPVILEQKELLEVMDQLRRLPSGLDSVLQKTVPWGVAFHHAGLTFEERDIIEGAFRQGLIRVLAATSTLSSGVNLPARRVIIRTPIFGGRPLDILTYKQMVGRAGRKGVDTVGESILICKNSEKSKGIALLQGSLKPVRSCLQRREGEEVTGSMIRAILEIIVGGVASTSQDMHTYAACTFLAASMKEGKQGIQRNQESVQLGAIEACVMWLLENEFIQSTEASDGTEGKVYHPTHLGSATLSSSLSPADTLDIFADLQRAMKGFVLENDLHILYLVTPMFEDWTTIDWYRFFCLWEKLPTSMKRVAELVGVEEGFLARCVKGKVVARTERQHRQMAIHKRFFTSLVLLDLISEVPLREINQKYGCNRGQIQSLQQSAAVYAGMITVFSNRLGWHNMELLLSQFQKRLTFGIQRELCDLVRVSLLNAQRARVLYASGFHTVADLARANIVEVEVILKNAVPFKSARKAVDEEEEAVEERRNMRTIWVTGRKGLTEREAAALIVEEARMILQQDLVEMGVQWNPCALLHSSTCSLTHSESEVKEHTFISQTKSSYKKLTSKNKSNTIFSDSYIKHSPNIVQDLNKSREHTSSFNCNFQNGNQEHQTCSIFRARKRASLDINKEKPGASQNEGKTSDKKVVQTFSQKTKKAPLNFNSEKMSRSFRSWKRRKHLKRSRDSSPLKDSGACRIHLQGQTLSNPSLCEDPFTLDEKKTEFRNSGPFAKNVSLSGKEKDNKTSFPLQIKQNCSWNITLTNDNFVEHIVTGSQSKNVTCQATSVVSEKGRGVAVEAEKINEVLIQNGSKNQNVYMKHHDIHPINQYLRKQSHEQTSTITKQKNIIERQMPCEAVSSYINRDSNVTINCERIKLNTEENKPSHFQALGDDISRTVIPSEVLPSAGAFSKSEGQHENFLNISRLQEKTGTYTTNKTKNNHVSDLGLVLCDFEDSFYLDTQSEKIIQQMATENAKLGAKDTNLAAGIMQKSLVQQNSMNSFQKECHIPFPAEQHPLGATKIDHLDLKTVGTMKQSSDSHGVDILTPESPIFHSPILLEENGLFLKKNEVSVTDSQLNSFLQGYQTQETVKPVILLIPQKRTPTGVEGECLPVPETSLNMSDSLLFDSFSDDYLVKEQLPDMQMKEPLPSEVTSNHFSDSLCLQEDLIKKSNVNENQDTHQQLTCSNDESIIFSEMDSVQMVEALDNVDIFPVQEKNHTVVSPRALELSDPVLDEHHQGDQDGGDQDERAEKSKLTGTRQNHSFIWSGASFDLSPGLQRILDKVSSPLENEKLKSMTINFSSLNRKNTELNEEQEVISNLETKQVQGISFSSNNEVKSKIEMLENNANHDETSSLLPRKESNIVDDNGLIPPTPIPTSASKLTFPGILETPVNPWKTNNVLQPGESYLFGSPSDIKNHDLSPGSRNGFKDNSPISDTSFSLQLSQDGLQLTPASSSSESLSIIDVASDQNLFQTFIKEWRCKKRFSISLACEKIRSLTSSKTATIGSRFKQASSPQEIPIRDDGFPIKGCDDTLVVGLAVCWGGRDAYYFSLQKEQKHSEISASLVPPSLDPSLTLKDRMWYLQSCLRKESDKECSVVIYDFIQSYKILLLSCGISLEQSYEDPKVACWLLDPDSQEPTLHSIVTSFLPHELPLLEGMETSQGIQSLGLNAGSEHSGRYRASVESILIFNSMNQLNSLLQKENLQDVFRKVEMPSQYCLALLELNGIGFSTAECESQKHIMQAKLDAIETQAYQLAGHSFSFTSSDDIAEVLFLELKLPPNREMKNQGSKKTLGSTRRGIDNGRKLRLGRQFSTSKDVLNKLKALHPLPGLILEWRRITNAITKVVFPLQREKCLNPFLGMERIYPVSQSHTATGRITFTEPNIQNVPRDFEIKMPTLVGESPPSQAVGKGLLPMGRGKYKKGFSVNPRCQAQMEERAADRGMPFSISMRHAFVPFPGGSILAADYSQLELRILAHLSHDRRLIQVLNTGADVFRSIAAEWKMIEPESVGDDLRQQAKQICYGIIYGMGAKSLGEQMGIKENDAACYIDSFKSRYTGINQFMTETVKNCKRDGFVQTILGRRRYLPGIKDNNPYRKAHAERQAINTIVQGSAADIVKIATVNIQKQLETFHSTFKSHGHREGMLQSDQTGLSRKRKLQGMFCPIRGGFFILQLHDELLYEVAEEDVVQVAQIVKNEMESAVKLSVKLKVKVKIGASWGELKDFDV
Read-out: enzyme activity
Action: inhibitor
Concentration: 77 µM
Relative to: untreated
SMILES | remaining activity
c1ccc2c(c1)[I+]c1ccccc1-2 | 107%
Cc1ncsc1CCCl | 89.8%
CC(=O)O[C@H]1CC[C@@]2(C)C(=CC[C@@H]3[C@@H]2CC[C@]2(C)C(=O)CC[C@@H]32)C1 | 103%
CC(C)(C)NCC(O)c1ccccc1Cl (centres unmarked) | 99.1%
O=C(O)CCCc1ccc(N(CCCl)CCCl)cc1 | 101%
OCc1cnc[nH]1 | 102%
CCCC[N+]1(C)[C@@H]2C[C@@H](OC(=O)[C@H](CO)c3ccccc3)C[C@H]1[C@@H]1O[C@@H]12 (single isomer, unassigned; (-)) | 100%
C=CCc1ccccc1OCC(O)CNC1(C)CCC(C(C)(C)NC(=O)CBr)CC1 (centres unmarked) | 100%
